Results gathered from unrelated publications.
Every numbered part comes from another study and shows a few of its results, in no order.

Study 1 — technique: RNA Bind-n-Seq; form: RNA; medium: in vitro; concentration: 200 nM; notes: whole 134-nt RNA, ends assumed; with: 150 mM LiCl; reference: input library; direction: higher = stronger binding; library: 7-deaza-guanosine replaces G
Target: Ras GTPase-activating protein-binding protein 1, full length (G3BP1, Homo sapiens, UniProt Q13283)
Chain of UniProt Q13283 (whole entry, looked up): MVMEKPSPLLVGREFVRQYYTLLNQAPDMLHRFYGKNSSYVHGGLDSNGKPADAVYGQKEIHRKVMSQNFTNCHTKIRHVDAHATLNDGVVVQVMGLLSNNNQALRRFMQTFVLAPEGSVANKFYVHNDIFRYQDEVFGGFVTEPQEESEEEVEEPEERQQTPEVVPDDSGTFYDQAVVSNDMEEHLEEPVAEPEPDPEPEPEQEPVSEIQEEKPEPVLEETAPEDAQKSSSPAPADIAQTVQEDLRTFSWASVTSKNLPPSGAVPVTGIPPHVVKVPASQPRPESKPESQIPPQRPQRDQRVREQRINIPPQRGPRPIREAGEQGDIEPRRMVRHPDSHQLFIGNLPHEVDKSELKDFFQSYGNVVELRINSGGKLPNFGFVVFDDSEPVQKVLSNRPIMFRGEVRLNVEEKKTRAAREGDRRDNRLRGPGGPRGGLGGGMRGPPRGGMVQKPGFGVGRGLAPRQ
All sequences stand within: GGGAGUUCUACAGUCCGACGAUC … UGGAAUUCUCGGGUGUCAAGG
With `CCUGUGCUACACAUCGUAUGUACCGAAUCGGCCCCCCCGGCCCCCCCGGCCCCCCCGGGGAAAGUAUUAUGUUACGCCGUUCGGAUCUGC` the log2 enrichment was 0.278.
`CACAGACAACACGCACCCACACAGACACAGAGGGAAGGGGUUGGGAUGGGGACAAAAUGCACAGCAGGGCGGGGUAGGACCCCAGCCCCU` has a log2 enrichment of -0.206.
`CUCAAGUCCUGUGCUACACAUCGUAUGUACCGAAUCGGUUUGGUUUGGAAAGGAAAGUAUUAUGUUACGCCGUUCGGAUCUGCACUUCCA` gave a log2 enrichment of 0.302.
`UCCUCAAGUCCUGUGCUACACAUCGUAUGUACCGAAUCGGCGGGGCGGGCGGAAAGUAUUAUGUUACGCCGUUCGGAUCUGCACUUCCAG` has a log2 enrichment of 0.784.
The log2 enrichment of `GUCCUGUGCUACACAUCGUAUGUACCGAAUCGGGGUUUUUUUGGGGAAAGGGGUGGGGAAAGUAUUAUGUUACGCCGUUCGGAUCUGCAC` is reported as -1.18.
`UCCUGUGCUACACAUCGUAUGUACCGAAUCGGGAAAAAAAGGGAAAAAAAGGGAAAGGGAAAGUAUUAUGUUACGCCGUUCGGAUCUGCA` gave a log2 enrichment of 0.32.
The log2 enrichment of `UAACUUUAGAGGAGGAUCUGAUGGAUAUGGCAGUGGACGUGGAUUUGGGGAUGGCUAAAAUGGGUAUGGAGGAGGACCUGGAGGUGGCAA` is reported as -0.0343.
With `AGUCCUGUGCUACACAUCGUAUGUACCGAAUCGGUUUUUUUGGAAAAAAAGGAAAGGAAAGUAUUAUGUUACGCCGUUCGGAUCUGCACU` the log2 enrichment was -2.92.

Study 2 — technique: RNA Bind-n-Seq; form: RNA; medium: in vitro; concentration: 365 nM; reference: no-protein control; direction: higher = stronger binding
Target: RNA binding protein fox-1 homolog 2, RRM domain, GST-SBP tag (RBFOX2, Homo sapiens, UniProt O43251-10, residues 100-194)
Notes: natural RNA segment, single round, ends assumed
All sequences stand within: GGGAGUUCUACAGUCCGACGAUC … UGGAAUUCUCGGGUGCCAA
Residues (chain): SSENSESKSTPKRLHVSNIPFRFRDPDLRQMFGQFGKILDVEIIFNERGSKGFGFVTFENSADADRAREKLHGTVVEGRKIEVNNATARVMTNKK
For `AAUUAACUUUCAGUUAUGAUUUCCCAUCGACAUUUUCUUUGCCCUGUUUGUAGCUGAUUGUUGUGUUUUAUAAAUCUUCUGUUAAGGCAGAAGGGUGAUUAUGAGUGGUU`, “RBNS enrichment (R)” read 0.231.
For `GUGUAUGUUUUUCAGUUCAAAGUCAUGAUGUUUUUAAAAUCUUAUUAAAGUUUCAAAAAUCUGAAGAUUGUUUAUCUAGAUGUAAAUUUUUAUUAAAAAGUUGCACUUAU`, “RBNS enrichment (R)” read 1.74.
For `CCCAGUUGAUGUCCUAUGUAGAGUUAAUUGUAAAACUUGAAGAAUUUCAGACAUAACCAACUUAUAAAUGACCUAUUUCUUCAGGCUAGCUUCUACAACACUGACCUCCA`, “RBNS enrichment (R)” read 0.382.
`CUAUUUUCUUUUAAUCUGGAUCUUUUGAGGUAAGAAGAUCCACCUUUAGUCAGGGCCACACCUUCUGAUGGCAUUCAAAUAUAAGGCUGUGGAAGAAGGAAGCUUUUGCG`: “RBNS enrichment (R)” 0.395.
Under “RBNS enrichment (R)”, `CCCUCCUGCUCCCCCCGCCCGACUUUGACUCUGAAUCAGCAUUUGGUCCUAUUCAGAGGACUCUUACCACGACGUUUCUGUUCUACACUUGGGUGGAGACCAGUUGACCA` is recorded as 0.534.
`UCAUUCUUUUUUUCUGAAAGAGGUAAUAAUUCUAGUUUUGAUAGACUCUGAGGAUUAUGUGAACAGGACAUUUUUCAUUUGUGAAUUUAAUGCUAUACUGUCAAGGUACU` — result for “RBNS enrichment (R)”: 0.372.
`CAUGGAAGGGAGGCAGCUCAGGGACCACCAUUGUGGAGCCUUUGAGACCUCUCUGAUUCAGAAACACACUUCUACCUCUUUACUGUUAACUCCAACAGAUGUAGCCAGCA` — result for “RBNS enrichment (R)”: 0.882.
`UCUGACCCUUGGGCCUGGGCCUCUGCCCCUCCCAACCCAGCCCUCGUCUCCCUCGACAGCGCCCCUGCUGUCUUCCCCACCGCAGUCACCACCACCCGAAAUGCCACGUG`: “RBNS enrichment (R)” 0.294.

Study 3 — technique: protein binding microarray; form: double-stranded DNA, one strand shown; medium: in vitro; concentration: not given; reference: not given; direction: higher = stronger binding
Target: Histone acetyltransferase KAT6A, both winged helices, GST fusion (KAT6A, Homo sapiens, UniProt Q92794, residues 1-181)
Notes: 8-mer, flanks averaged, mean of 2 arrays, mostly near background
Residues (chain): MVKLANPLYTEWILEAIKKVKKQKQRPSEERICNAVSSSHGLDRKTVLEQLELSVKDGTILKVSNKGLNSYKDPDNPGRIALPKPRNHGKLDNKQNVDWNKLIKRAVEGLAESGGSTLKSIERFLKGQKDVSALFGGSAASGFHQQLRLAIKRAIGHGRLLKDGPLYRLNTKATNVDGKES
For `TTAATCAA`, the E-score was -0.0323.
`GTACAGAC` gave an E-score of -0.00549.
With `TGGTCGAA` the E-score was -0.228.
`CCAAAAAC` gave an E-score of -0.143.
The E-score of `ATCCTAGC` is reported as -0.181.
`GACCCTAA` has an E-score of -0.179.
`GTACGGAC` has an E-score of 0.222.
`AGGTTGAG` gave an E-score of -0.107.
`CTCTATAC` gave an E-score of 0.0253.
For `CTCCCAGA`, the E-score was -0.154.
With `AACCGTCG` the E-score was 0.307.
For `ACAGATCT`, the E-score was -0.146.
The E-score of `ACGTATCT` is reported as -0.0152.
With `CCCCGTAG` the E-score was 0.154.
`GTGTTGCA` gave an E-score of -0.0481.
The E-score of `GTCTTATA` is reported as -0.0204.
With `CGAGGCTA` the E-score was -0.127.
With `AAGAACCA` the E-score was -0.0683.
For `AACAGATT`, the E-score was -0.115.
With `CTAAGACC` the E-score was -0.116.
For `CGGTTGCA`, the E-score was 0.0895.
With `AACGCTTC` the E-score was 0.168.
With `CTACATCC` the E-score was 0.027.
`AACGAGAT` has an E-score of -0.114.
For `AAAGTTGT`, the E-score was 0.00052.

Study 4 — technique: universal PBM; form: double-stranded DNA, one strand shown; medium: in vitro; concentration: 600 nM; direction: higher = stronger binding
Target: Sal-like protein 4, full length isoform A (SALL4, Homo sapiens, UniProt Q9UJQ4, residues 1-1053)
Chain of UniProt Q9UJQ4 (whole entry, looked up): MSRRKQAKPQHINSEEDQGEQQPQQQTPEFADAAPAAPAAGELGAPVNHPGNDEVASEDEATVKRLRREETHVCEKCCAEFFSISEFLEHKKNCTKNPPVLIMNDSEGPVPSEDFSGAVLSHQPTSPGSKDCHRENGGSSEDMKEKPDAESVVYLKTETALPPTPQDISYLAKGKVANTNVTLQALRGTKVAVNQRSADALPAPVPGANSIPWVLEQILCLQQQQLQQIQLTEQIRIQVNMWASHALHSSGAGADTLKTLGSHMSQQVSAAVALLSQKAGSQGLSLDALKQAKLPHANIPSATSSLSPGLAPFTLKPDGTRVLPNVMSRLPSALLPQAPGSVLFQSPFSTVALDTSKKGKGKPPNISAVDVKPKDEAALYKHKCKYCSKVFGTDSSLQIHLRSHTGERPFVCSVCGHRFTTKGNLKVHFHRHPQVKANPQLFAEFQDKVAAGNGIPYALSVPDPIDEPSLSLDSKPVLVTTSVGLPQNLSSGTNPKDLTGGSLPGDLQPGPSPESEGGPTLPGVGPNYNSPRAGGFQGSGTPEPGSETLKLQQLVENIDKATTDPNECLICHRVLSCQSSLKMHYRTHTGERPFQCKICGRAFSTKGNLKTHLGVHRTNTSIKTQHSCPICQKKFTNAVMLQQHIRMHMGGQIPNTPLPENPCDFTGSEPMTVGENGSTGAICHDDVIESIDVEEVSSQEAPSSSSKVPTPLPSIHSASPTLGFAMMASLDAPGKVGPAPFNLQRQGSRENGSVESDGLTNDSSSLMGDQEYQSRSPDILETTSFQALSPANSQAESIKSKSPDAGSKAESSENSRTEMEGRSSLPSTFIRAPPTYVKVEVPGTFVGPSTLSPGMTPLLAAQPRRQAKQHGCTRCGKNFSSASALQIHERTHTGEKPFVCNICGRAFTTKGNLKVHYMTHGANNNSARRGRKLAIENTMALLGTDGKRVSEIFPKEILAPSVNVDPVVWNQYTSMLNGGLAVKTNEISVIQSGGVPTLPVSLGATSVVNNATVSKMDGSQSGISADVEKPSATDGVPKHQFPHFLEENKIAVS
Notes: 8-mer, flanks averaged, mean of replicates
The E-score of `CACCTCTG` is reported as -0.213.
For `CCGGGTAA`, the E-score was -0.195.
With `GGCGCTAA` the E-score was -0.123.
`CCTGTGGA` gave an E-score of -0.283.
For `AGTGAATA`, the E-score was 0.175.
With `CTTACCCC` the E-score was -0.251.
`ATACTCAC` gave an E-score of 0.1.
With `ACCTCTTC` the E-score was 0.0964.
With `ACACTTCT` the E-score was -0.118.
The E-score of `GACGAAGA` is reported as 0.00507.
The E-score of `CGTTGCGC` is reported as -0.194.
`CGCATCCC` has an E-score of -0.284.
The E-score of `ATAAAACA` is reported as 0.338.
With `GGCGTGCA` the E-score was -0.215.
`CGGTGTGA` has an E-score of -0.23.
`TGCGAGAA` gave an E-score of -0.14.
`ACAGGGAT` gave an E-score of -0.116.
`CTACTATA` has an E-score of 0.309.
With `GGTACGTA` the E-score was -0.0088.
For `CCCCTCGA`, the E-score was -0.252.
With `AATTGAGA` the E-score was 0.197.
`CACAGCTA` gave an E-score of -0.0377.
With `ATGAGTAG` the E-score was 0.172.
For `CCCAATAG`, the E-score was -0.0018.
`ACTCCCAT` has an E-score of 0.0834.

Study 5 — technique: RNA Bind-n-Seq; form: RNA; medium: in vitro; concentration: not given; notes: RNA with constant flanks, ends assumed; reference: input RNA pool; direction: higher = stronger binding
Target: RING finger protein unkempt homolog, zinc fingers 1-6, GST-SBP tag (UNK, Homo sapiens, UniProt Q9C0B0, residues 30-357)
All sequences stand within: GGGAGUUCUACAGUCCGACGAUC … CAACAGAGGAUUGAGCAUCA
Construct (chain): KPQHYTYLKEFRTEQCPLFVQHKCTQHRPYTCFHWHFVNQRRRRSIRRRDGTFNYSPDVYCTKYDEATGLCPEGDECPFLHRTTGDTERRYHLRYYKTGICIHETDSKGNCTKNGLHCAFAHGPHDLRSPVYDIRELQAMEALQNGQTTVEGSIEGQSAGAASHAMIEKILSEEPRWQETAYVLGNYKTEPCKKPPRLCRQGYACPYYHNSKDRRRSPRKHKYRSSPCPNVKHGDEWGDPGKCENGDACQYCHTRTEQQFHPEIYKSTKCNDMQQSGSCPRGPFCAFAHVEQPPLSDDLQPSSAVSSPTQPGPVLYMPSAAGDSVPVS
With `AUGGCAACAUCAGAGGCACUUAAAAUUUCAAGAGAGGUAGAUCCAGAUGGUCGCAGAACCCCCGCUGUAAUCACUAAACUUGAUCUCAUGGAUGCGGGUACUGAUGCCAUGGAUGUAUUG` the bound/input enrichment was 0.178 ratio.
The bound/input enrichment of `ACUUAGCAAGGGCUCUGAAAUGACAAAGAGAACGAGCACCACAAAUGAGAACAGGAUCAUUUCCGUAAAUACAGCUUUAUCCCAAAAGCUUUAACUGUAUUGGGAAAACUUAAAAAAUAG` is reported as 0.608 ratio.
With `GCUGGAAAUAGGGCACAGAUCCAGACUGUGAUAGAUGCUAACAUGUUCCCAGCUCUUAUCCGUAUAUUGCAAACAGCAGAGUUCCGGACAAGGAAGGAAGCUGCUUGGGCCAUCACAAAU` the bound/input enrichment was 0.241 ratio.
The bound/input enrichment of `AUCCCCAAUGUUCUGCGCCGCAUUCGGGAGUCUUUCUUUCGCGUGGUGCCGCAGUUUGCCGUGUUUUAUCUUAUCUACACAUGGGGGACUGAAGAGUUCGAGAGAUCCAAGAGGAAGAAU` is reported as 0.106 ratio.
For `ACUUUUCCAUGCAGAGUUGUGCACAUGGGAGAGGGUAUCCGGUUUGUCCAGUGAUUGUUCUUCCGAGAGUUGGACCACUAUAUUGUGUGUUUGCUAAUCAUUGACUGUAGUCCCAAAAAA`, the bound/input enrichment was 0.287 ratio.
`UGAUAUAUAAACCUUAAGUGAAAUGAAAGAAAAAGAUCUAUUGCAGAUAUCUGAUGGAUGCCGUUUUCUUUUUUUAAAUUAGAAAUGCCACUUCUAUUGUAUUGUCUCACACAUGCUCUA` has a bound/input enrichment of 1.45 ratio.
The bound/input enrichment of `AGUAUGAUUAAUACAACAGGUGCCGUGGAUUCAGGGUCCUCCUCCUCUUCCUCCUCUUCCCGUUUUGUGAAUGGUGCUACUAGCAAAAACCUUCCAGCUGUACAAACUGUUGCUCCAAUG` is reported as 0.423 ratio.
`GCAGUAGCCAGAGGAUGUGCAUUACAGUGUGCAAUACUUUCCCCGGCAUUUAAAGUCCGAGAAUUUUCCGUCACAGAUGCAGUUCCUUUUCCAAUAUCUCUGAUCUGGAACCAUGAUUCA` has a bound/input enrichment of 0.082 ratio.
